Assay results from different studies.
Numbered parts are unrelated; each lists some results of a single study. Changes are numbered by the printed parent chain.
Chain of UniProt P46734 (whole entry, looked up): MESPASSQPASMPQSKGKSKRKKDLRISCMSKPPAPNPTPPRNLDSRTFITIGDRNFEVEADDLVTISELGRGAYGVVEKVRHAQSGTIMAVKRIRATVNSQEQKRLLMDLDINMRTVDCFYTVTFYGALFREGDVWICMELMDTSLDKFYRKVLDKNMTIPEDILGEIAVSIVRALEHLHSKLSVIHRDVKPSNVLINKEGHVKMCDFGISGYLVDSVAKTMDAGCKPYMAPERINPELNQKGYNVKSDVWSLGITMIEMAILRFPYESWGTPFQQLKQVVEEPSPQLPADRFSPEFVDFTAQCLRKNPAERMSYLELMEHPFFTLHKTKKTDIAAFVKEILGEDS
Chain of UniProt Q15831 (whole entry, looked up): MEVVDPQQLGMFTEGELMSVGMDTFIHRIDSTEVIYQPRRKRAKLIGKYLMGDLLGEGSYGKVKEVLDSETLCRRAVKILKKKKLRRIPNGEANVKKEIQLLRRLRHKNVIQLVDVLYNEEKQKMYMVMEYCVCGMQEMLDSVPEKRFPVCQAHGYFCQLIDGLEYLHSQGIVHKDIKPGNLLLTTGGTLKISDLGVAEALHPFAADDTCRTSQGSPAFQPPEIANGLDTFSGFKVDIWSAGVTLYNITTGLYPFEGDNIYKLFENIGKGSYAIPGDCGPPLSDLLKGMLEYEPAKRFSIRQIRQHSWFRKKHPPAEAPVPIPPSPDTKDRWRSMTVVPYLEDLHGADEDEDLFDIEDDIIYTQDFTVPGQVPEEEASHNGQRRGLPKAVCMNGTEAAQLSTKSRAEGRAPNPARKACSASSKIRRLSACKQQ
Chain of UniProt Q96RR4 (whole entry, looked up): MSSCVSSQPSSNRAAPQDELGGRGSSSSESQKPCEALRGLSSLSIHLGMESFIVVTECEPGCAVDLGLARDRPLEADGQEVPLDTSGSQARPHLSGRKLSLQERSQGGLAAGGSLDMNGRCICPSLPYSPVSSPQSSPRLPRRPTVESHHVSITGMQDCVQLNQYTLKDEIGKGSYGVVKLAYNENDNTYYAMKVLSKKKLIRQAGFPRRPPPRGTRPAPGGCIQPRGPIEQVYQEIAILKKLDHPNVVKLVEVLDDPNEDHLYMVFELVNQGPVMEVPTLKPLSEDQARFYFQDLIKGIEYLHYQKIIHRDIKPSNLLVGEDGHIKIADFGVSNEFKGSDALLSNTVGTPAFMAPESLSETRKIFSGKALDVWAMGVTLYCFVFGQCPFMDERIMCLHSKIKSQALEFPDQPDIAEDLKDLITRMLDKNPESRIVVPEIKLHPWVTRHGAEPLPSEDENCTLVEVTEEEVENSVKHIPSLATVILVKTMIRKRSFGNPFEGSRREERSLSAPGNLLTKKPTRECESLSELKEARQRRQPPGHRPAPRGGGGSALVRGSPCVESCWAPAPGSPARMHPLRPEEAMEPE
Chain of UniProt P07948 (whole entry, looked up): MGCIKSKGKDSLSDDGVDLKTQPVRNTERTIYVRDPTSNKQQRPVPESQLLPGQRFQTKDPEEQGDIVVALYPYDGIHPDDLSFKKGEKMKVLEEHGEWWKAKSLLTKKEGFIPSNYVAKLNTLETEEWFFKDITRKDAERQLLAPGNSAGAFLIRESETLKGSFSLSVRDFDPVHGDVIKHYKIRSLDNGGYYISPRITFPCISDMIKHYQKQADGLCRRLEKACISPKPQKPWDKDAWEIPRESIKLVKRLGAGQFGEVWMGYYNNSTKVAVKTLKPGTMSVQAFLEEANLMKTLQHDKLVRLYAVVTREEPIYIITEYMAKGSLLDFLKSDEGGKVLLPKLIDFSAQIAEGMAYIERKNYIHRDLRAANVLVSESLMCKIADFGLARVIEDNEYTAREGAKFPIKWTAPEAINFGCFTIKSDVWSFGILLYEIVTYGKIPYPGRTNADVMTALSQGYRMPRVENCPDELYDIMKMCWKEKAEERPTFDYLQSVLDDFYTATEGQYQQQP
Chain of UniProt P05771 (whole entry, looked up): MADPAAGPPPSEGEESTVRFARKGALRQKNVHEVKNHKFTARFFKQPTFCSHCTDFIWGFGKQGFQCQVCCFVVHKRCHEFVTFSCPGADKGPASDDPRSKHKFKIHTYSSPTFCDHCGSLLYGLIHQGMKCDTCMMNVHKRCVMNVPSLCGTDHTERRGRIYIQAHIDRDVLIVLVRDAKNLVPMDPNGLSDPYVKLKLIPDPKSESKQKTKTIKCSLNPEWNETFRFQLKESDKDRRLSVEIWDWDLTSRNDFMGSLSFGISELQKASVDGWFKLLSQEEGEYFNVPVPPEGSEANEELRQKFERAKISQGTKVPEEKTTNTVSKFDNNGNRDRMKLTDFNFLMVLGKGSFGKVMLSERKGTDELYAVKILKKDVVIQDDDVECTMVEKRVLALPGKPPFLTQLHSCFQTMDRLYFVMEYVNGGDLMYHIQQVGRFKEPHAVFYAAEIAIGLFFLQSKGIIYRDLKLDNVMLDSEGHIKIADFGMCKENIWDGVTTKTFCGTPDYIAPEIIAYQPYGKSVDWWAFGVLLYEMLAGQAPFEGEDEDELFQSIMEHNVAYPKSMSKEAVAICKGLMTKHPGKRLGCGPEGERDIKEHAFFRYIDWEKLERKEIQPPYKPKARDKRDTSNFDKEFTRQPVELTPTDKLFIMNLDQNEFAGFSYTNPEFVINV
Chain of UniProt Q99759 (whole entry, looked up): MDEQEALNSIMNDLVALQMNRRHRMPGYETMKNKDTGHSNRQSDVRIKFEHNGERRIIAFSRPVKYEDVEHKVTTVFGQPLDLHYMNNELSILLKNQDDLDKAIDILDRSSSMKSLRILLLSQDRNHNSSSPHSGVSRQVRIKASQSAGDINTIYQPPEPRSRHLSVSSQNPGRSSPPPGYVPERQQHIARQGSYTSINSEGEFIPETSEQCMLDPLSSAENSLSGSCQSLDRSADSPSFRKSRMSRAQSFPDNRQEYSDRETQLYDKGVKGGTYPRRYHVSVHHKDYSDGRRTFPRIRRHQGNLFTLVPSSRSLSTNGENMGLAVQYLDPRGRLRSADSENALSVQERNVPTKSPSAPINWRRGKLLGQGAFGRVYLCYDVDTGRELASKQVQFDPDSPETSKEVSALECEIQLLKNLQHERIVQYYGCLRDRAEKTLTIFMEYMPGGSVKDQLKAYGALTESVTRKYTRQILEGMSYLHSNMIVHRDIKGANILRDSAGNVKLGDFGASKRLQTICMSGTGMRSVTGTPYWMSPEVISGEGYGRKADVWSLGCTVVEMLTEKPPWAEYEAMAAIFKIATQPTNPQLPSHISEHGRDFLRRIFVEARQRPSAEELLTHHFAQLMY
Chain of UniProt P23458 (whole entry, looked up): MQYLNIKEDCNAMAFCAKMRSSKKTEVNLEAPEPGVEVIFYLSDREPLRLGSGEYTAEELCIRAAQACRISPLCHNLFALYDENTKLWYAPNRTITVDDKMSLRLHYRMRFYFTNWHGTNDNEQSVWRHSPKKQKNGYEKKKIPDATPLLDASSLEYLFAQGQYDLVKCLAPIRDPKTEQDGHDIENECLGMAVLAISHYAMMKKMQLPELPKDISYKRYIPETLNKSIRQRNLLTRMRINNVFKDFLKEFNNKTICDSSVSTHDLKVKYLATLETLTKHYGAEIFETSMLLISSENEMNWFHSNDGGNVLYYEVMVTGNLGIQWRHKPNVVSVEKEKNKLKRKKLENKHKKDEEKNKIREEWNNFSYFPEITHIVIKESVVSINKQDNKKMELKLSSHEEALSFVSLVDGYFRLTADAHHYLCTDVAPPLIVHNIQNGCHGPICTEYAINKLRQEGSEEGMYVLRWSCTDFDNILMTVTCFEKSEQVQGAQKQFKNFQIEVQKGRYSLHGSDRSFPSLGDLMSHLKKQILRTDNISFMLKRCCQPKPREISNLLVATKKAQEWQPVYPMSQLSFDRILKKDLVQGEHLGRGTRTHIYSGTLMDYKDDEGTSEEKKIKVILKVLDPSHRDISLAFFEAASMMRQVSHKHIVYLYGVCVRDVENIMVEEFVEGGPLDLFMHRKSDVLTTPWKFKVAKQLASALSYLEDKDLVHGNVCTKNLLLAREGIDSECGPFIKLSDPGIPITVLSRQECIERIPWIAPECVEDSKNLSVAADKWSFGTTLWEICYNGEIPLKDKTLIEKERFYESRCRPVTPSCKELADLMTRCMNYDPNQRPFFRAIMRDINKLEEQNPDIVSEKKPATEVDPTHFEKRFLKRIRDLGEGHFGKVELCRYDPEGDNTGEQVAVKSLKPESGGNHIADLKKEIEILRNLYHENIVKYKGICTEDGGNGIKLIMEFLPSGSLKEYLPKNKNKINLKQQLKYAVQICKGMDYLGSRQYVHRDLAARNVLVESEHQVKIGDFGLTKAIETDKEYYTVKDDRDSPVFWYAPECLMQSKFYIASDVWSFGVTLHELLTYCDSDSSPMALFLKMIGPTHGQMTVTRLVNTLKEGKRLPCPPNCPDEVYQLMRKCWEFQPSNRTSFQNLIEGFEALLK
Chain of UniProt P11802 (whole entry, looked up): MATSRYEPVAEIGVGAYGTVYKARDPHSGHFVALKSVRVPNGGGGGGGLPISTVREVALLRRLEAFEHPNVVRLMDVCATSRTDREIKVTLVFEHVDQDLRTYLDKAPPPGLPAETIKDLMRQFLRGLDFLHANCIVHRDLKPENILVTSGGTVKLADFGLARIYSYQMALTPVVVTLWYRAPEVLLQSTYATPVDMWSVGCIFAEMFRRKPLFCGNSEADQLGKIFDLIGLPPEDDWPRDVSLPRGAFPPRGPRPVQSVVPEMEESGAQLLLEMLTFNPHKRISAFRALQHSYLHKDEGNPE

Study 1 — effect on: enzyme activity; action: inhibitor; tested at: 0.5 µM; reference: control
Structure (SMILES): Cc1ccc(NC(=O)c2ccc(CN3CCN(C)CC3)cc2)cc1Nc1nccc(-c2cccnc2)n1
| target | remaining activity |
| --- | --- |
| Serine/threonine-protein kinase STK11 (STK11, Homo sapiens, UniProt Q15831) | 104% |
| Mitogen-activated protein kinase 9 (MAPK9, Homo sapiens, UniProt P45984) | 95.2% |
| Calcium/calmodulin-dependent protein kinase kinase 2 (CAMKK2, Homo sapiens, UniProt Q96RR4) | 97.5% |
| Calcium/calmodulin-dependent protein kinase type II subunit delta (CAMK2D, Homo sapiens, UniProt Q13557) | 97.4% |
| STE20/SPS1-related proline-alanine-rich protein kinase (STK39, Homo sapiens, UniProt Q9UEW8) | 93.2% |
| Protein kinase C beta type, isoform beta-I (PRKCB, Homo sapiens, UniProt P05771) | 92.7% |
| Cyclin-dependent kinase 4, with cyclin D1 (CDK4, Homo sapiens, UniProt P11802) | 97.5% |
| Mitogen-activated protein kinase kinase kinase 3 (MAP3K3, Homo sapiens, UniProt Q99759) | 106% |
| Tyrosine-protein kinase Lyn, isoform B (LYN, Homo sapiens, UniProt P07948) | 71.2% |

Study 2 — technique: competition with immobilised ligand; tested at: 1 µM
Structure (SMILES): C[C@@]1(Cc2ccc(C#N)cc2)C(=O)N(c2cc(Cl)cc(Cl)c2)c2ncc(C(=O)NC3(c4nc(C5CCC5)no4)CC3)n21
| target | assay | remaining binding [%] |
| --- | --- | --- |
| Ribosomal protein S6 kinase alpha-1, N-terminal kinase domain (RPS6KA1, Homo sapiens, UniProt Q15418) | cell-free assay | 100 |
| Serine/threonine-protein kinase SIK3 (SIK3, Homo sapiens, UniProt Q9Y2K2) | cell-free assay | 98 |
| Tyrosine-protein kinase JAK1, JH1 (JAK1, Homo sapiens, UniProt P23458) | cell-free assay | 100 |
| Tyrosine-protein kinase ABL1, phosphorylated (ABL1, Homo sapiens, UniProt P00519, E255K) | binding | 95 |
| Tyrosine-protein kinase ABL1, non-phosphorylated (ABL1, Homo sapiens, UniProt P00519, Q252H) | cell-free assay | 89 |
| TGF-beta receptor type-2 (TGFBR2, Homo sapiens, UniProt P37173) | cell-free assay | 99 |
| MAP/microtubule affinity-regulating kinase 3 (MARK3, Homo sapiens, UniProt P27448) | cell-free assay | 100 |
| Dual specificity mitogen-activated protein kinase kinase 3 (MAP2K3, Homo sapiens, UniProt P46734) | cell-free assay | 89 |
| Dual specificity mitogen-activated protein kinase kinase 5 (MAP2K5, Homo sapiens, UniProt Q13163) | cell-free assay | 100 |
| Proto-oncogene tyrosine-protein kinase receptor Ret (RET, Homo sapiens, UniProt P07949, V804L) | cell-free assay | 100 |
| Mitogen-activated protein kinase 9 (MAPK9, Homo sapiens, UniProt P45984) | cell-free assay | 100 |
| Epidermal growth factor receptor (EGFR, Homo sapiens, UniProt P00533) | cell-free assay | 100 |

Study 3 — technique: competition protein-binding microarray; molecule type: double-stranded DNA, one strand shown; sample: in vitro; tested at: 2 µM; with: Pho4 competitor, 0.05 µM; direction: higher = stronger binding
Target: Centromere-binding protein 1, full length, His-tagged (CBF1, Saccharomyces cerevisiae, UniProt P17106, residues 1-351)
Chain of UniProt P17106 (whole entry, looked up): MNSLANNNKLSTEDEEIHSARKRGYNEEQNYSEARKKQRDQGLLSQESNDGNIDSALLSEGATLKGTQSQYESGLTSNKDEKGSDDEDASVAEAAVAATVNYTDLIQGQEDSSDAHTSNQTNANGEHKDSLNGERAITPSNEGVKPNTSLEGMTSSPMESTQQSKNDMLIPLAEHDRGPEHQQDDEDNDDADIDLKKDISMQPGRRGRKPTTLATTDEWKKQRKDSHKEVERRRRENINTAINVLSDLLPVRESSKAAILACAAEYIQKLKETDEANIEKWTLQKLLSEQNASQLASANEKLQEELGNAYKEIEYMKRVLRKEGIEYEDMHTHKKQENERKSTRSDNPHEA
Setting: whole 60-bp probe, lowest competitor level
| Oligonucleotide | fluorescence intensity [a.u.] |
| --- | --- |
| AAAACATCAAAACTACACGTTTGGGTGGTACGGAGGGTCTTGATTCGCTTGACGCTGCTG | 76.9 |
| CTTTCCCGATCTTGCCATGTGGGTGTAGCACATTTGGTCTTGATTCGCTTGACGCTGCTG | 89.7 |
| GTCTTGTCTCATTTTCACGTGCAGTTCCCCACTTCAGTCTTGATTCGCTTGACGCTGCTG | 758 |
| TGCGCAACAACTTGTCACTCTACTTTATGTCTAGAAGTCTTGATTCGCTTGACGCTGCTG | 78.9 |
| CGGGGTTAAGTTTGGTTCGTGGGTGGCTTGCAGCAGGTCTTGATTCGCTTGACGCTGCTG | 63.9 |
| ACCGTAAAATGGCCTCACGTGGAACGCTCCCGTCTAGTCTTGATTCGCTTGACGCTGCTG | 760 |
| AAATTACTAAGTTGGGGTGTGGGTGACGCCGTATGAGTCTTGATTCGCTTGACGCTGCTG | 67.2 |
| AAAGCGGTAATTTGTCACTATACTTCACATATCTATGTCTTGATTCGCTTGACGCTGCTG | 81.8 |

Study 4 — Variant: S9I; technique: DHFR PCA, deep sequencing; sample: yeast; reference: wild-type fitted maximum; direction: higher = stronger binding
Target: ABI1, truncated, D143A, DHFR fusion (Arabidopsis thaliana)
Setting: methotrexate growth selection, single substitutions
Parent: PYL1, truncated, DHFR fusion (Arabidopsis thaliana); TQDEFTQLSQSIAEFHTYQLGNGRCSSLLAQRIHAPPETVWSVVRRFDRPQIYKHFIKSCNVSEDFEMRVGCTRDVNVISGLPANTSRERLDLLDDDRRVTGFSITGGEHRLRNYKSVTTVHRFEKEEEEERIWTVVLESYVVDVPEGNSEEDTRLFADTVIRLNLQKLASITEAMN; partner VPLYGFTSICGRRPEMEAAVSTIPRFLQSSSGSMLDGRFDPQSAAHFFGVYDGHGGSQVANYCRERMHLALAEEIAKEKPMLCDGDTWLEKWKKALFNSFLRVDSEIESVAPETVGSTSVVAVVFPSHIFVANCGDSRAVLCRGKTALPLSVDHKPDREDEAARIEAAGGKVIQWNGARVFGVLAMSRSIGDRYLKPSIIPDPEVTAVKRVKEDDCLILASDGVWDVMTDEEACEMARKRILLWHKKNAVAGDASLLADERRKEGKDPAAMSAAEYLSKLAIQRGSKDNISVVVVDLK
| setting | relative binding score [%] |
| --- | --- |
| with: (+)-ABA 0.11 µM | 16.8 |
| with: (+)-ABA 0 µM | 21.1 |
| with: (+)-ABA 58 µM | 68.8 |
| with: (+)-ABA 4.8 µM | 47.4 |
| with: (+)-ABA 0.39 µM | 22.8 |
| with: (+)-ABA 710 µM | 94.7 |

A few entries again (study 3):
| Oligonucleotide | fluorescence intensity [a.u.] |
| --- | --- |
| CTTTCCCGATCTTGCCATGTGGGTGTAGCACATTTGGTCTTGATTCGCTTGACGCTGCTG | 89.7 |
| GTCTTGTCTCATTTTCACGTGCAGTTCCCCACTTCAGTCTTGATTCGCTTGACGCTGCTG | 758 |
| TGCGCAACAACTTGTCACTCTACTTTATGTCTAGAAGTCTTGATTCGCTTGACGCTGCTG | 78.9 |
| CGGGGTTAAGTTTGGTTCGTGGGTGGCTTGCAGCAGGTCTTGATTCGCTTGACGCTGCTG | 63.9 |
| ACCGTAAAATGGCCTCACGTGGAACGCTCCCGTCTAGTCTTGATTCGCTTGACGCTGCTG | 760 |
